Experimental data collected from several papers.
Each line is one published result; not all experiments were run side by side. Numbers after ± are the reported error.

`O=C(CCc1ccc(CNC(C(=O)O)C2CCCCC2)cn1)NO` (stereo not drawn) — result for “accumulation ratio Cmax”: 1.12 (human, plasma; oral, 40 mg once daily, median; baseline: day 7 over day 1).
`CC(=O)N[C@H](CSSC[C@H](N)C(=O)O)C(=O)N[C@H](C)C(=O)N[C@H](CCCNC(=N)N)C(=O)N[C@H](CCCNC(=N)N)C(=O)N[C@H](CCCNC(=N)N)C(=O)N[C@H](C)C(=O)N[C@H](CCCNC(=N)N)C(N)=O` has a clearance of 135 mL/min (male human, plasma; intravenous, 5 mg, single dose, healthy volunteers).
`CC(C)[C@H](NC(=O)CNC(=O)[C@H](CCC(N)=O)NC(=O)[C@H](C)N)C(=O)O` — result for “volume of distribution”: 4 L/kg (LC-MS/MS; human, plasma; intravenous, 10 mg/kg three times daily, day 3, first dose, geometric mean).
Under “patients with anaemia”, `CC(C)c1cnc(-c2cc(Cl)ccc2F)cc1Nc1ccncc1C(=O)NC(CO)CO` is recorded as 9.5% (patients, phase I monotherapy; oral, dose not given, grade 2).
`CC(O)c1cc(Cl)ccc1Cn1c(=S)[nH]c(=O)c2[nH]ccc21` (stereo not drawn): exposure ratio “not detected” (dog, both sexes, plasma; 100 mg/kg; baseline: dog over human 10 mg).
Under “deviation from nominal”, `COC(=O)C(c1ccccc1Cl)N1CCC(SCC(=O)c2cccc(OC)c2)C(=CC(=O)O)C1` (mixture of isomers) is recorded as 0% (HPLC-MS/MS; feline EDTA plasma; 100 ng/mL, 24 h, -80 °C, storage stability).
The AST of `CC(=O)[CH](C(C)=O)[Pt-2]1([S+](C)C)[O]C(C)=CC(C)=[O+]1` (stereo not drawn) is reported as 92.3 ± 8.6 U/L (rat, blood; intravenous, 20 mg/kg, single dose).
`CN1CCC[C@]1(C)/C=C/S(=O)(=O)NC(=O)Nc1c2c(cc3c1CCC3)CCC2` — result for “cumulative urinary recovery”: 50 to 85% (human, urine; oral, dose not given, time not given, single dose).
The measured concentration of `Cc1ccccc1/N=N/c1ccc(/N=N/c2c(O)ccc3ccccc23)c(C)c1` is reported as 0.213 µg/L (extracted rat blood QC samples; 0.2 µg/L, 4 h, room temperature, short-term stability).
`O=c1nc(NO)ccn1[C@@H]1O[C@H](CO)[C@@H](O)[C@H]1O` gave a protein level of 1.5 fold (Western blot, item: CYP2B6; rat, normal, liver; oral, 80 mg/kg twice daily, 5 days; baseline: control group).
`COC(=O)c1ccc(-c2cn(Cc3cc(Cl)ccc3O[11CH3])nn2)cc1` — result for “distribution volume (VT)”: 0.59 mL/cm³ (PET two-tissue compartment model; rhesus monkey, basal ganglia; dose not given).
`CC[N+]1(Cc2ccc3ccc(O)c(C#N)c3n2)CCCC1CNC(=O)c1cc(S(N)(=O)=O)ccc1OC` (stereo not drawn): “two-photon uncaging action cross-section” 0.26 GM (KMOPS buffer; pH 7.2, excitation at 740 nm).
For `O=C([O-])CN1CCN(CC(=O)[O-])CCN(CC(=O)NC[C@H]2CC[C@H](C(=O)N[C@H](Cc3cnc4ccccc4c3)C(=O)NCCCC[C@H](NC(=O)N[C@@H](CCC(=O)O)C(=O)O)C(=O)O)CC2)CCN(CC(=O)[O-])CC1.[64Cu+2]`, the absorbed dose was 0.031 mGy/MBq (PET/CT dosimetry OLINDA/EXM; healthy volunteers, small intestine; up to 24 h post-injection).
`CC(C)(Sc1ccncc1-c1ccc(C#N)c2ccccc12)C(=O)OC1OC(C(=O)O)C(O)C(O)C1O` (stereo not drawn) gave a Cmax increase of 112% (adult men, plasma; oral, 15 mg verinurad, moderate renal impairment; baseline: normal renal function).
The AUC(0-inf) of `COc1cc(C)c(Cc2ccc(O)cc2)cc1[C@@H]1S[C@H](CO)[C@@H](O)[C@H](O)[C@H]1O` is reported as 306 ± 63.8 ng·h/mL (Japanese T2DM patients, plasma; 5 mg luseogliflozin, day 1, once daily).
For `Cc1ccc(-c2ccc(-c3cc4sccc4o3)cn2)nc1`, the fluorescence lifetime was 1.51 ns (TCSPC; DMSO).
`CCC(=O)N[C@@H](C)C(=O)OCC(=O)N[C@@H](C)C(=O)O` gave a depolymerization half-life of 232 h (water; pH 3, 50 °C).
For `CCCC(CCC)NC(=O)c1ccc(OC2OC(C(=O)O)C(O)C(O)C2O)c(O)c1` (stereo not drawn), the Tmax was 8.3 h (female Sprague-Dawley rat, plasma; oral, 200 mg/kg of parent drug).
Under “mouth ulceration incidence”, `Cn1c(=O)oc2ccc(-c3ccc(CC(C#N)NC(=O)C4CNCCCO4)c(F)c3)cc21` (stereo not drawn) is recorded as 11.1% (human; oral, 10 mg once daily, TEAE, multiple ascending dose).
`CC[C@H](C)[C@H](NC(=O)[C@H](Cc1ccccc1)NC(=O)[C@H](CC(=O)O)NC(=O)[C@H](CN)NC(=O)[C@H](Cc1ccccc1)NC(=O)[C@H](Cc1ccccc1)NC(=O)[C@H](CCCCN)NC(=O)[C@H](CCCCN)NC(=O)[C@H](CC(C)C)NC(=O)[C@H](CCCNC(=N)N)NC(=O)[C@H](CCSC)NC(=O)[C@H](C)N)C(=O)N[C@@H](CC(C)C)C(=O)N[C@@H](CCC(N)=O)C(=O)N[C@@H](CCCNC(=N)N)C(=O)N[C@@H](CCCCN)C(=O)N[C@@H](CCCCN)C(=O)O` gave a helicity of 30.1% (circular dichroism; 20% TFE in PBS; 200 µM, pH 7.4, 25 °C).
`CCCN1C(=O)CCc2cc(NS(=O)(=O)Cc3ccc(C)cc3)ccc21`: “half-life relative to ABA” ~7 fold (LC-MS; mild UV light; baseline: ABA).
With `CC[C@H](C)[C@H](NC(=O)[C@H](N)Cc1ccc(O)cc1)C(=O)N[C@H]1CSSC[C@@H](C(=O)N(C)[C@H](C(N)=O)[C@@H](C)CC)NC(=O)[C@H](CCCNC(=N)N)NC(=O)[C@H](Cc2c[nH]cn2)NC(=O)[C@H](C)NC(=O)CN(C)C(=O)[C@H](Cc2c[nH]c3ccccc23)NC(=O)[C@H](CC(=O)O)NC(=O)[C@H](CCC(N)=O)NC(=O)[C@H](Cc2cn(C)c3ccccc23)NC(=O)[C@H](C(C)C)NC1=O` the recovery was 99.8 ± 0.3% (UPLC-ESI-MS; human plasma; 0.18 µg/mL, 24 h, 25 °C, bench-top after SPE).
`COCCOCCOCCOCCC(=O)NCc1cc(CNC(=O)CCOCCOCCOCCOC)cc(-c2cc3cc4nc(c(-c5ccc(CCC(=O)O)cc5)c5[nH]c(cc6nc(c(OC)c2[nH]3)CC6(C)C)cc5-c2cc(CNC(=O)CCOCCOCCOCCOC)cc(CNC(=O)CCOCCOCCOCCOC)c2)CC4(C)C)c1`: “integrated Qy/B absorption ratio” 0.4 (water with 5% DMF; room temperature).
For `C#CCn1c2ccc([N+](=O)[O-])cc2c(=O)n1Cc1ccccc1`, the CC50 was 4.3 ± 0.4 µM (resazurin; peritoneal macrophages, BALB/c mice; 48 h, 10% FBS).
`CC(=O)N[C@H](CCNC(=O)c1cc(NC(=O)c2cc(NC(=O)c3cc(NC(=O)c4nccn4C)cn3C)cn2C)cn1C)C(=O)Nc1cn(C)c(C(=O)Nc2cc(C(=O)Nc3cc(C(=O)Nc4cc(C(=O)NCCCN(C)CCCN[14C](=O)c5cccc([14C](=O)O)c5)n(C)c4)n(C)c3)n(C)c2)n1` gave a tissue concentration of 0.55 mg/kg (NSG male mice, A549 xenograft without Matrigel, liver; intraperitoneal, 20 nmol per animal).
With `N=C(N)NCCC[C@@H]1NC(=O)[C@H](Cc2c[nH]c3ccccc23)NC(=O)[C@@H](CC2CCCCC2)NC(=O)[C@@H]2CCCN2C(=O)[C@@H](NC(=O)CCc2ccccc2)CCCNC1=O` the MRT(0-inf) was 2.71 h (C57BL/6J mouse, plasma spinal cord; subcutaneous, 1 mg/kg single dose).
Under “half-life of Asn form”, `CC(=O)N[C@@H](CC(N)=O)C(=O)NCC(=O)N[C@@H](CCCNC(=N)N)C(=O)N[C@@H](C)C(N)=O` is recorded as 3 h (1H NMR; sodium phosphate buffer 50 mM; pH 7.4, 55 °C).

Repeated from above:
`COCCOCCOCCOCCC(=O)NCc1cc(CNC(=O)CCOCCOCCOCCOC)cc(-c2cc3cc4nc(c(-c5ccc(CCC(=O)O)cc5)c5[nH]c(cc6nc(c(OC)c2[nH]3)CC6(C)C)cc5-c2cc(CNC(=O)CCOCCOCCOCCOC)cc(CNC(=O)CCOCCOCCOCCOC)c2)CC4(C)C)c1`: “integrated Qy/B absorption ratio” 0.4 (water with 5% DMF; room temperature).
